# Results pooled from the literature.
# Each line is one published result; not all experiments were run side by side.
Structure (SMILES),species,medium,route,dose,notes,bioavailability
COC1C(c2ccc(Cl)c(Cc3ccc(OC4CCOC4)cc3)c2)OC(CO)C(O)C1O (stereo not shown),CD-1 mouse,plasma,oral,10 mg/kg,,91.5%
Nc1nnc(-c2ccccc2O)cc1N1CC2CCC(C1)N2c1ccnc(C#CCCN2CCCCCC2)c1,mouse,plasma,oral,10 mg/kg,,1%
COC1C=COC2(C)Oc3c(C)c(O)c4c(c3C2=O)C2=NC3(CCN(CC(C)C)CC3)NC2=C(NC(=O)C(C)=CC=CC(C)C(O)C(C)C(O)C(C)C(OC(=O)Nc2cscn2)C1C)C4=O (stereo not shown),female CD-1 mouse,plasma,oral,10 mg/kg,,53%
C[C@@H](Nc1c(-c2c(F)cc(C#N)cc2F)c(Cl)nc2ncnn12)C(C)(C)C,male CD-1 mouse,plasma,oral,20 mg/kg,,76%
Cc1ncsc1-c1ccc(CNC(=O)[C@@H]2C[C@@H](O)CN2C(=O)[C@@H](NC(=O)COCC(C)(COCCOCCOCCNC(=O)C[C@@H]2N=C(c3ccc(Cl)cc3)c3c(sc(C)c3C)-n3c(C)nnc32)COCCOCCOCCNC(=O)C[C@@H]2N=C(c3ccc(Cl)cc3)c3c(sc(C)c3C)-n3c(C)nnc32)C(C)(C)C)cc1,male C57BL/6 mouse,plasma,subcutaneous,5 mg/kg,single dose,88.4%
O=S(=O)(Nc1ccc(OC(F)(F)F)cc1)N1CCCC(C2c3ccc(F)cc3CCc3cc(F)ccc32)C1 (stereo not shown),mouse,plasma,oral,30 mg/kg,,17%
Cn1c2cc([S+](C)[O-])sc2c2cnn(Cc3cccc(N)c3)c(=O)c21 (stereo not shown),male BALB/c mouse,plasma,oral,10 mg/kg,single dose,> 100%
CCn1cc(-c2cc(Cn3ccnc3)cc3c2CCN([C@H](c2cc(OC)ccn2)C2CC2)C3=O)c(C(F)(F)F)n1,male CD-1 mouse,plasma,oral,50 mg/kg,,47%
Cc1cc(C(=O)N[C@@H](CC(=O)NC(C)(C)C)C(=O)NCCNC(=O)c2cc(-c3ccccc3)ccn2)no1,mouse,plasma,oral,,,0%
COc1ccccc1NC(=O)OC1C(C)C(OC)C=COC2(C)Oc3c(C)c(O)c4c(c3C2=O)C2=NC3(CCN(CC(C)C)CC3)NC2=C(NC(=O)C(C)=CC=CC(C)C(O)C(C)C(O)C1C)C4=O (stereo not shown),female CD-1 mouse,plasma,oral,10 mg/kg,,22%
Nc1ccc(-c2cc(Cl)c(Cl)c3[nH]c4c(c23)CN(C(=O)CO)CC4)cn1,C57BL/6 mouse,blood,oral,20 mg/kg,,13.4%
Fc1cncc(-c2ccc3[nH]c4ncnc(N[C@H]5CC[C@H](N6CCOCC6)CC5)c4c3c2)c1,CD-1 mouse,plasma,oral,10 mg/kg,,24.2%
CCC1(CC)CC(=O)N(C2CCOc3ccc(C(=O)NC4CC(C)(C)Oc5ccccc54)cc32)C(=N)N1 (stereo not shown),male C57BL/6 mouse,plasma,oral,,,38%
COC1C=COC2(C)Oc3c(C)c(O)c4c(c3C2=O)C2=NC3(CCN(CC(C)C)CC3)NC2=C(NC(=O)C(C)=CC=CC(C)C(O)C(C)C(O)C(C)C(OC(=O)c2cncnc2)C1C)C4=O (stereo not shown),female CD-1 mouse,plasma,oral,10 mg/kg,,80%
O=C(Nc1ccc(C(F)F)cc1)[C@H](CC1CCCCC1)Nc1nn2c(=O)ccnc2s1,female nude mouse,plasma,oral,10 mg/kg,,20%
Cn1ccc(-c2cc(Cl)c(Cl)c3[nH]c4c(c23)CN(C(=O)CO)CC4)n1,C57BL/6 mouse,blood,oral,100 mg/kg,,161%
